Measured values pooled from the literature.
Protocols differ between the studies behind these lines. Values joined by “and” are separate records of one study, mostly repeats; a detail may differ. Numbers after ± are the reported error.
ALB: Albumin (ALB, Homo sapiens, UniProt P02768)
uncharacterized protein: uncharacterized protein (Spodoptera exigua, UniProt F1CEY0)
ULK1: Serine/threonine-protein kinase ULK1 (ULK1, Homo sapiens, UniProt O75385)
ADORA2A: Adenosine receptor A2a (ADORA2A, Homo sapiens, UniProt P29274)
TOP2A: DNA topoisomerase 2-alpha (TOP2A, Homo sapiens, UniProt P11388)

`C1CCCC1.C1CCCC1.[Cl][W][Cl]` — result for “Gibbs free energy change”: -5.22 kcal/mol (ALB; binding, fluorescence quenching; 310 K).
For `OC[C@H]1O[C@@H](Oc2cc3c(O)cc(O)cc3[o+]c2-c2cc(O)c(O)c(O)c2)[C@H](O)[C@@H](O)[C@@H]1O`, “Gibbs free energy” read -6.66 kcal/mol (ALB; binding, fluorescence quenching; 20 °C).
The Hill slope of `N[C@H](CNC(=O)c1ccc(-c2cccc(F)c2F)s1)C(=O)O` is reported as 1.45 (Glutamate receptor ionotropic, NMDA 1, with GluN2D (Grin1, Rattus norvegicus, UniProt P35439); added: glutamate 300 µM).
With `CCCCCC(C)O` (stereo not drawn) the relative fluorescence was 69.1% (uncharacterized protein; binding, competitor, fluorescence displacement; 20 µM, pH 7.4, added: 1-NPN 20 µM; relative to: 1-NPN alone).
`CC[C@H](C)[C@@H]1NC(=O)[C@H](Cc2ccc(O)cc2)NC(=O)[C@H](CC(C)C)NC(=O)[C@@H]2CCCN2C(=O)[C@@H](NC(=O)[C@H](CCCNC(=N)N)NC(=O)[C@H](CCCNC(=N)N)NC(C)=O)CSSC[C@@H](C(=O)N[C@@H](CCCNC(=N)N)C(=O)N[C@@H](CCCNC(=N)N)C(N)=O)NC(=O)[C@H](C(C)C)NC(=O)[C@@H]2CCCN2C(=O)[C@H](CC(=O)O)NC(=O)[C@H](Cc2ccc(O)cc2)NC(=O)[C@H](Cc2cscn2)NC1=O`: “lowest bound protein concentration” 0.16 µM (GTPase KRas, GDP-bound (KRAS, Homo sapiens, UniProt P01116, G12D); affinity selection mass spectrometry; mixture library 2, added: protein titration up to 5 µM; lower is stronger binding).
For `CC[C@@H]1[C@H](F)C(=O)N[C@@H]1COc1nccc2cc(C(N)=O)c(OC)cc12`, the inhibition was 6.8% (PRKD2 (Homo sapiens, UniProt Q9BZL6); ATP-site probe binding, ActivX profiling, refers to: PKD2; THP-1 cell lysate; 0.2 mM, Lys1 site).
For `O=c1cc(CO)occ1[O-].[Cl-].[W+4].c1cc[cH-]c1.c1cc[cH-]c1`, “Gibbs free energy change” read -5.92 kcal/mol (ALB; binding, fluorescence quenching; 310 K).
`N[C@@H](Cc1ccccc1)C(=O)Nc1ccc2ccccc2c1` has a kcat of 43.3 s⁻¹ (Puromycin-sensitive aminopeptidase (Rattus norvegicus, UniProt F1M9V7); substrate; MW 100 kDa).
With `C=CC(=O)N1CCC(COCC(=O)N2CCN(c3nc(-c4cnc(N)nc4C(F)F)nc(N4CCOC[C@@H]4C)n3)CC2)CC1` the remaining binding was 100% (CDK11B (Homo sapiens, UniProt P21127); KINOMEscan; 1 µM).
For `C1=C/COCc2cc(ccc2OCCN2CCCC2)Nc2nccc(n2)-c2cccc(c2)COC/1`, the remaining binding was 90% (ULK1; concentration not given; relative to: DMSO control).
`O=c1cc(-c2ccc([N+](=O)[O-])cc2)[nH]c2c(-c3ccc(Cl)cc3)c(Cc3ccccc3)nn12`: “melting temperature shift” 6.6 °C (WD40 repeat-containing protein SMU1 (Homo sapiens, UniProt Q2TAY7); thermal stability, binder, thermal proteome profiling; RD, cell lysate; 50 µM, 0.5% DMSO; relative to: DMSO vehicle).
`COc1cc(NC(=O)c2ccccn2)ccc1/N=N/c1ccccc1Cl` has an activation of 119% (GRM4 (Homo sapiens, UniProt Q14833); positive allosteric modulator, IP accumulation; HEK293; 30 µM, in the dark, added: low-dose orthosteric agonist).
For `CCNC(=O)/C=C/c1cccc(Br)c1`, “remaining transport activity” read 0.241 (SLC6A19 (Homo sapiens, UniProt Q695T7); inhibitor, L-[14C]leucine uptake; CHO-BC cells; 3 µM, 6 min, unit not given, added: GPNA 3 mM, JPH203 3 µM; relative to: uninhibited cells).
`CCCC[C@H](NC(=O)[C@H](C)c1c(C)[nH]c2ccc(O)cc12)c1ncc(-c2cc3ccccc3nc2OC)[nH]1` has an effect of 50% (PTGFR (Homo sapiens, UniProt P43088); 10 µM).
Under “thermal stability ratio”, `O=C(COP(=O)(O)O)[C@@H](O)[C@H](O)[C@H](O)COP(=O)(O)O` is recorded as 0.573 (Prostaglandin E synthase 3 (Homo sapiens, UniProt Q15185); thermal proteome profiling, refers to: PTGES3; HepG2 cell lysate; concentration not given, 57 over 37 °C, mean; relative to: compound over control).
`C=CC(=O)N1CCC(C(=O)NCC(=O)N2CCN(c3nc(-c4cnc(N)nc4C(F)F)nc(N4CCOCC4)n3)CC2)CC1` has a remaining binding of 85% (ULK1; KINOMEscan; 1 µM).
For `CCCCCCCCCCCCCC(C)=O`, the relative fluorescence was 44.6% (uncharacterized protein; binding, competitor, fluorescence displacement; 20 µM, pH 7.4, added: 1-NPN 20 µM; relative to: 1-NPN alone).
For `CCOc1ccc(NC(=O)O[C@@H](Cn2nc(C(C)C)cc2C(C)C)C(C)C)cc1`, the maximum response was 18.8 ± 0.8 fold (Neuronal acetylcholine receptor; alpha4/beta2 (Homo sapiens, UniProt P17787+P43681); two-electrode voltage clamp; Xenopus oocytes; concentration not given, low-sensitivity stoichiometry, added: ACh 100 µM; relative to: ACh alone).
`NC/C(=C\F)COc1cccc(Cn2c(=S)[nH]c(=O)c3[nH]cnc32)c1` has an inhibition of 101% and 99.2% (AOC3 (Homo sapiens, UniProt Q16853); H2O2 production, Amplex Red; 0.3333 µM, recombinant human enzyme).
`OC[C@H]1O[C@@H](Oc2cc3c(O)cc(O)cc3[o+]c2-c2ccc(O)cc2)[C@H](O)[C@@H](O)[C@@H]1O` — result for “binding entropy change”: 0.01 kJ/(mol·K) (ALB; van't Hoff analysis; concentration not given).
`CNC(=O)[C@@]12C[C@@H]1[C@@H](n1cnc3c(NC)nc(C#Cc4ccc(Cl)s4)nc31)[C@H](O)[C@@H]2O` has an activity of 168% (ADORA3 (Homo sapiens, UniProt P0DMS8); receptor activation, agonist; 10 µM; relative to: control).
`Nc1cccc(CC2SC(=O)NC2=O)c1` (stereo not drawn) has a ligand efficiency of 0.47 (ADORA2A; radioligand displacement; added: [3H]ZM241385).
`Oc1ccccc1-c1n[nH]cc1-c1ccnc2ccccc12`: “log2 fold change” 0.13 (Aurora kinase (IPL1, Candida albicans, UniProt Q59S66); kinase binding, MIB/MS competition; Candida albicans lysate; 1 µM; relative to: DMSO, negative = stronger binding).
For `N[C@H](CNC(=O)c1ccc(-c2cccc(F)c2)s1)C(=O)O`, the Hill slope was 1.65 (Glutamate receptor ionotropic, NMDA 1, with GluN2A (Grin1, Rattus norvegicus, UniProt P35439); added: glutamate 300 µM).
For `O=c1nc(SCc2cc(F)cc(C(F)(F)F)c2)nc(SCc2csc3ccc(Cl)cc23)[nH]1`, the linear DNA was 0% (TOP2A; DNA cleavage; 7.8 µM, replicate 1).
`Cc1cccc(N2CC(C(=O)O)CC2=O)c1` (stereo not drawn) has a fold enrichment of 0.897 (DNA mismatch repair protein Msh6 (Homo sapiens, UniProt P52701); binding, affinity selection mass spectrometry; relative to: other proteins in batch).
The remaining activity of `C=CC(=O)N1CCC[C@@H](n2nc(-c3ccc(Oc4ccccc4)cc3)c3c(N)ncnc32)C1` is reported as 116% (NTRK3 (Homo sapiens, UniProt Q16288); 1 µM).
`O=c1nc(SCc2cc(F)cc(C(F)(F)F)c2)nc(SCc2ccc3nc(Cl)ccc3c2)[nH]1` — result for “ATP hydrolysis rate”: 0.259 µM/min and 0.207 µM/min (TOP2A; ATPase activity; 31.25 µM, added: ATP 0.025 mM).
Under “normalised MST signal”, `NCCCS(=O)(=O)O` is recorded as -0.0607 (SLC6A6 (Homo sapiens, UniProt P31641, G62A); binding, microscale thermophoresis; 31.3 µM, room temperature, added: 50 nM labelled protein; higher = more binding).
`Nc1nc2c(ncn2[C@@H]2O[C@H](COP(=O)(O)O)[C@@H](O)[C@H]2O)c(=O)[nH]1` has a reaction rate of 1.89 s⁻¹ and -1.42 s⁻¹ and -0.65 s⁻¹ (GUK1 (Homo sapiens, UniProt Q16774, R44A); enzyme activity, NADH-coupled; 7.812 µM).
The relative fluorescence of `C=CC(C)(O)CCC=C(C)C` (stereo not drawn) is reported as 63% (uncharacterized protein; binding, competitor, fluorescence displacement; 20 µM, pH 7.4, added: 1-NPN 20 µM; relative to: 1-NPN alone).
For `Cc1cc(-c2ccnc3[nH]cc(F)c23)cc(F)c1[C@@]1(O)[C@H](C)CN(C2CCS(=O)(=O)CC2)C[C@@H]1C`, “probe labelling inhibition” read 32.5% (JAK1 (Homo sapiens, UniProt P23458); ATP/ADP probe binding, KiNativ; HEK293T lysate; 10 µM, Lys1 peptide domain 2).
With `CCCCCCCCC(CO)CCCCCC` (stereo not drawn) the relative fluorescence was 71% (uncharacterized protein; binding, 1-NPN competitive displacement; protein 2.0 µM, added: 1-NPN 20 µM; relative to: 1-NPN without compound, lower = stronger binding).
The remaining activity of `O=C(O)c1ccc(Nc2ncc3c(n2)-c2ccc(Cl)cc2C(c2c(F)cccc2F)=NC3)cc1` is reported as 31% (Fyn(h); kinase activity; 1 µM).
`CC1(F)CN(C(=O)Cn2c(=O)c(C(=O)NCc3ccc(Cl)cc3)cc3nc(N4CCOC4=O)cnc32)C1` has a Hill slope of 0.78 (DNA polymerase catalytic subunit (Human cytomegalovirus, UniProt P08546); enzyme activity, inhibitor).
With `C=CC[C@@H]1c2ccc(OC)c(OC)c2CN2CCc3cc4c(cc3[C@H]12)OCO4` the inhibition ratio was 0.843 and 0.851 and 0.814 (P2X purinoceptor 7 (P2RX7, Homo sapiens, UniProt Q99572); ATP-evoked current, inhibitor, whole-cell patch clamp; HEK293 transfected; 1 µM, wild type, added: ATP 1 mM; relative to: ATP alone).
For `N#Cc1ccc2c(-c3ccncc3)c(-c3ccc(F)cc3)nn2c1`, “log2 fold change” read -0.0788 (Carbon catabolite-derepressing protein kinase (SNF1, Candida albicans, UniProt P52497); kinase binding, competitor, MIB/MS competition, refers to: SNF1; Candida albicans cell lysate; 100 nM; relative to: DMSO).
Under activity, `COC(=O)C(Cc1cccc(OC)c1I)NC(=O)CN(Cc1ccccc1)C(=O)OC(C)(C)C` (stereo not drawn) is recorded as “inactive” (OPRK1 (Homo sapiens, UniProt P41145); binding; concentration not given).
With `CC(=O)N[C@H](C(=O)N1C[C@H](O)C[C@H]1C(=O)NCc1ccc(-c2scnc2C)cc1)C(C)(C)SCCCCCCNC(=O)C[C@@H]1N=C(c2ccc(Cl)cc2)c2c(sc(C)c2C)-n2c(C)nnc21` the ΔG was -8.85 ± 0.06 kcal/mol (von Hippel-Lindau disease tumor suppressor, with elongin B/C (VHL, Homo sapiens, UniProt P40337); ITC; 25 °C, binary).
The displacement of `O=C(Nc1nc2ccccc2[nH]1)c1ccccc1O` is reported as 46 ± 5% (ADORA2A; binding, radioligand competition; 10 µM, added: [3H]ZM241385).
For `CCN1CCN(c2cc(N3CCN(CC)CC3)nc(NCCNc3ccnc4cc(Cl)ccc34)n2)CC1`, the activation was 1.79 fold (RXRA (Homo sapiens, UniProt P19793); reporter gene, Gal4 hybrid reporter; 20 µM; relative to: vehicle).
The inhibition of `O=C(Nc1cccc2c(=O)cc(-c3nnn[nH]3)oc12)c1ccc(OCCCCc2ccccc2)cc1` is reported as 88.3% and 81.2% and 84.3% and 71.7% and 65.5% and 80.4% (LRRC8A/LRRC8C (Homo sapiens, UniProt Q8IWT6+Q8TDW0, L134K/L136K); ion current, whole-cell patch clamp; HCT LRRC8-/- cells; 10 µM, -100 mV, L134K/L136K heteromers).
With `Cc1ccc(C[C@H](NC(=O)OC(C)(C)C)C(=O)NC/C=C/S(=O)(=O)c2ccccc2)cc1` the kinact/Ki was 5840 M⁻¹ s⁻¹ (Procathepsin L (CTSL, Homo sapiens, UniProt P07711); inhibitor; added: Z-Phe-Arg-pNA).
`N[C@H](CNC(=O)c1cc(Br)c(-c2ccccc2F)s1)C(=O)O` has a potency ratio of 8.5 fold (Glutamate receptor ionotropic, NMDA 1, with GluN2C (Grin1, Rattus norvegicus, UniProt P35439, S688A); relative to: mutant over wild type).
With `Nc1ncnc2c1ncn2[C@@H]1O[C@H](COP(=O)(O)CP(=O)(O)OP(=O)(O)O)[C@@H](O)[C@H]1O` the calcium influx was 4.38% and 0% and 4.29% (P2X purinoceptor 1 (P2RX1, Homo sapiens, UniProt P51575, K136A); calcium influx; 10 nM; relative to: ionomycin response).

For quick reference, copied from above:
`O=c1cc(-c2ccc([N+](=O)[O-])cc2)[nH]c2c(-c3ccc(Cl)cc3)c(Cc3ccccc3)nn12`: “melting temperature shift” 6.6 °C (WD40 repeat-containing protein SMU1 (Homo sapiens, UniProt Q2TAY7); thermal stability, binder, thermal proteome profiling; RD, cell lysate; 50 µM, 0.5% DMSO; relative to: DMSO vehicle).
`N[C@H](CNC(=O)c1cc(Br)c(-c2ccccc2F)s1)C(=O)O` has a potency ratio of 8.5 fold (Glutamate receptor ionotropic, NMDA 1, with GluN2C (Grin1, Rattus norvegicus, UniProt P35439, S688A); relative to: mutant over wild type).
For `N#Cc1ccc2c(-c3ccncc3)c(-c3ccc(F)cc3)nn2c1`, “log2 fold change” read -0.0788 (Carbon catabolite-derepressing protein kinase (SNF1, Candida albicans, UniProt P52497); kinase binding, competitor, MIB/MS competition, refers to: SNF1; Candida albicans cell lysate; 100 nM; relative to: DMSO).
`CNC(=O)[C@@]12C[C@@H]1[C@@H](n1cnc3c(NC)nc(C#Cc4ccc(Cl)s4)nc31)[C@H](O)[C@@H]2O` has an activity of 168% (ADORA3 (Homo sapiens, UniProt P0DMS8); receptor activation, agonist; 10 µM; relative to: control).
Under “thermal stability ratio”, `O=C(COP(=O)(O)O)[C@@H](O)[C@H](O)[C@H](O)COP(=O)(O)O` is recorded as 0.573 (Prostaglandin E synthase 3 (Homo sapiens, UniProt Q15185); thermal proteome profiling, refers to: PTGES3; HepG2 cell lysate; concentration not given, 57 over 37 °C, mean; relative to: compound over control).
